Measurements of several laboratories.
Parts stem from different laboratories: compare values within a part only.

Sample 1 — method: protein-binding microarray; molecule type: double-stranded DNA, one strand shown; medium: in vitro; tested at: 940 nM top; setting: 60-bp whole probe; with: salmon DNA 0.4 mg/ml; reference: random background probes; reading: higher = stronger binding; shared flanks, not repeated: GCCTAGCAC … GTCTTGATTCGCTTGACGCTGCTG
Target: Interferon regulatory factor 5, full length, phosphomimetic (IRF5, Homo sapiens, UniProt Q13568-2, residues 1-514, S451D/S453D/S456D/S462D)
`GACGGTCGCCTTCTCCTGACGTGCTAG`: “fitted relative affinity” -0.128 z-score.
`TTAGGTAACGGGTATCGGTTAGTGCTA`: “fitted relative affinity” 2.89 z-score.
Under “fitted relative affinity”, `TTAGGTATCGACTATCGGTTCGTGCTA` is recorded as 5.9 z-score.
`AGTCTCTTCTGGGACTCATGGTGCTAG` — result for “fitted relative affinity”: 0.524 z-score.
Under “fitted relative affinity”, `TCAGTCCTCACTTCCTTACTGTGCTAG` is recorded as 0.92 z-score.

Sample 2 — method: universal PBM; molecule type: double-stranded DNA, one strand shown; medium: in vitro; tested at: not given; reading: higher = stronger binding
Target: Sal-like protein 4, full length isoform B (SALL4, Homo sapiens, UniProt Q9UJQ4-2, residues 1-616)
Setting: 8-mer, flanks averaged, mean of replicates
Residues (chain): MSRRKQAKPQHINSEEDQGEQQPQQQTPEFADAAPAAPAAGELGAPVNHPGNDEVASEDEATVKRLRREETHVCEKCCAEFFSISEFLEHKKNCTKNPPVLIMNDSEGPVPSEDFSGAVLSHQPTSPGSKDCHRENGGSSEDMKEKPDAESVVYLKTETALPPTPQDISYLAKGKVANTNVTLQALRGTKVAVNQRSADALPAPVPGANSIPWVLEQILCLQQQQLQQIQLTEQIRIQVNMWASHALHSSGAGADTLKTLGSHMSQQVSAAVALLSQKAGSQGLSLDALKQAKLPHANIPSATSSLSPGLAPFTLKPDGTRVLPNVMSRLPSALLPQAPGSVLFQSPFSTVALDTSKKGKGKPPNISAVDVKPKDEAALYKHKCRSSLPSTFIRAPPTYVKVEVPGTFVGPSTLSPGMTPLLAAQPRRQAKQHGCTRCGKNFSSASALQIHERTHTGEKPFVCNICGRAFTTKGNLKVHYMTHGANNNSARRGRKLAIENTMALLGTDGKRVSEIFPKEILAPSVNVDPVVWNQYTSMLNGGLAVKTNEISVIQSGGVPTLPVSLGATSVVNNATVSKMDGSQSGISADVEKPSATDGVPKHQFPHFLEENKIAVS
`CAAACGTC` has an E-score of -0.0504.
For `AGCAAGGG`, the E-score was -0.121.
With `CTGACCTC` the E-score was -0.202.

Sample 3 — method: aptamer microarray, sandwich; molecule type: DNA with 2'F-ANA; medium: in vitro; tested at: 200 nM; with: Cy3 exosite-II aptamer, 400 nM; reading: higher = stronger binding
Target: Prothrombin, mature alpha-thrombin (F2, Homo sapiens, UniProt P00734)
Setting: whole 15-mer aptamer, many near background
Under “mean fluorescence intensity”, `GGTTGGTGTGGTTGG (2'F-ANA at 1 2 5 6 7 9 13 14)` is recorded as 59.2 a.u.
`GGTTGGTGTGGTTGG (2'F-ANA at 1 7 9 10 13 15)`: “mean fluorescence intensity” 77.1 a.u.
`GGTTGGTGTGGTTGG (2'F-ANA at 1 6 8 9 10 11 12 14)`: “mean fluorescence intensity” 53.2 a.u.

Single results of other studies
`PhoQ, residues 284 288 289 292 302 303 TLASMF` gave a fold induction of 4.15 (PhoP, residues 12 14 15 18 19 LWHCS (Escherichia coli, UniProt P23836); Sort-seq, measured: YFP reporter; E. coli; PhoQ-PhoP variant library, with: 10 µM Mg2+; reference: high Mg2+ state, higher = stronger signaling).

Some of these lines once more (sample 1):
Under “fitted relative affinity”, `TCAGTCCTCACTTCCTTACTGTGCTAG` is recorded as 0.92 z-score.
